Measured values gathered from unrelated publications.
Numbered parts are unrelated; each lists some results of a single study. Substitutions count along the parent as printed.

Study 1 — target: CREBL2, bZIP domain (human); technique: DHFR protein complementation; sample: yeast; baseline: wild-type JUN-FOS pair; direction: higher = stronger binding
Setting: single substitutions, most at no-binding floor
Starting sequence: JUN, bZIP domain (human); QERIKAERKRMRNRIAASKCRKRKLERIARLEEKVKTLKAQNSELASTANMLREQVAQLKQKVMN; partner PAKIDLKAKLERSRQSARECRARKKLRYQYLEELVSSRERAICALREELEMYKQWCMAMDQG
Substitution | binding fitness
S47R | -1.49 natural log
A46D | -1.46 natural log
K36W | -1.55 natural log
E44I | -1.24 natural log
V35L | -1.55 natural log
L38I | -1.17 natural log
R30N | -1.36 natural log
A57V | -1.55 natural log
K39G | -1.48 natural log
M51P | -1.51 natural log
R53D | -1.43 natural log
Q55G | -1.53 natural log
A40F | -1.56 natural log
A49T | -1.34 natural log
I28Y | -1.5 natural log
R30G | -1.39 natural log
L38N | -1.46 natural log
L38W | -1.54 natural log
M51L | -1.48 natural log
E32C | -1.27 natural log
T48G | -1.52 natural log
S47Q | -1.58 natural log

Study 2 — technique: DHFR PCA, deep sequencing; sample: yeast; with: (+)-ABA 17 µM; baseline: wild-type fitted maximum; direction: higher = stronger binding
Target: ABI1, truncated, D143A, DHFR fusion (Arabidopsis thaliana)
Setting: methotrexate growth selection, single substitutions
Starting sequence: PYL1, truncated, DHFR fusion (Arabidopsis thaliana); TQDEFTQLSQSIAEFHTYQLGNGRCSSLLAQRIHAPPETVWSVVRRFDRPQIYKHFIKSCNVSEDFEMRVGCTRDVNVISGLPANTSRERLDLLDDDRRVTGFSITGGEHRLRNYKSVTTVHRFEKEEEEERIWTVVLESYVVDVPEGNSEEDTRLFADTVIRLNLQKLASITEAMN
Substitution | relative binding score [%]
E64Q | 87.6
S140N | 2.47
L138S | 14.2
E125L | 82.9
I133M | 89.3
T119L | 71.9
V70A | 68
W41M | -1.41
N22V | 84.7
P146M | 17.6
V62N | -13
E152Q | 77.6
K54H | 0.9
K58F | 27
Q7T | 85.8
R74Q | -12
D48S | 23
V118T | 98.8
Q167W | 37.4
M176P | 80.9
R155A | 39.7

Study 3 — target: CCNF, cyclin fold, Cln2 fusion (human); technique: yeast growth competition, sequencing; sample: yeast; setting: strong parent motif; baseline: not given; direction: higher = stronger binding
Starting sequence: CDKN1A docking peptide (human); SKACRRLFGPVDS
Substitution | normalised enrichment score
R5M | 0.521
C4S | 5.87
L7R | 0.162
R5D | -0.419
R6E | 5.73
R5A | 0.588
P10R | 6.59
A3L | 7.1
L7Q | 0.268
S13A | 8.44
P10A | 6.97
C4H | 4.15
G9I | 7.6
V11M | 7.5
F8K | 0.319
R6H | 2.3
C4D | 0.704
K2H | 7.74
C4T | 3.3
R6G | 1.92
R6F | 2.24
K2V | 7.07
C4K | 7.09
V11N | 7.49
G9F | 8.56

Study 4 — technique: protein binding microarray; form: double-stranded DNA, one strand shown; sample: in vitro; tested at: not given; baseline: not given; direction: higher = stronger binding
Target: Histone acetyltransferase KAT6A, both winged helices, GST fusion (KAT6A, Homo sapiens, UniProt Q92794, residues 1-181)
Setting: 8-mer, flanks averaged, mean of 2 arrays, mostly near background
Construct (chain): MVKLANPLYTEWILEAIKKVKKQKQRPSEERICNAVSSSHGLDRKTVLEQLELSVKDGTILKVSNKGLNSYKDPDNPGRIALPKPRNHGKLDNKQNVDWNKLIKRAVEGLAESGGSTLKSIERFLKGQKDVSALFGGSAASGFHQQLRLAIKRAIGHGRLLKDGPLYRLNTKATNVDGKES
Sequence | E-score
CGATTCTA | -0.0288
AGGACGGC | 0.215
ACCGCAGA | 0.112
GGATAATA | -0.0372
GACGCTTA | 0.109
ACGCTCCT | 0.025
ATGAACTA | -0.124
ACGGGCAC | 0.24
GGGGACCA | -0.148
ACCCTCAC | -0.176
AACTATGC | 0.0232
ATACTGTA | -0.0541
AAACAATA | 0.03
CCTGGCCG | 0.0222
CTGACCGC | 0.196
ACGTCAGG | -0.129
GACACACA | 0.0747

Study 5 — technique: RNA Bind-n-Seq; form: RNA; sample: in vitro; tested at: 200 nM; setting: whole 134-nt RNA, ends assumed; with: 150 mM LiCl; baseline: input library; direction: higher = stronger binding; library: 7-deaza-guanosine replaces G
Target: Ras GTPase-activating protein-binding protein 1, full length (G3BP1, Homo sapiens, UniProt Q13283)
Chain of UniProt Q13283 (whole entry, looked up): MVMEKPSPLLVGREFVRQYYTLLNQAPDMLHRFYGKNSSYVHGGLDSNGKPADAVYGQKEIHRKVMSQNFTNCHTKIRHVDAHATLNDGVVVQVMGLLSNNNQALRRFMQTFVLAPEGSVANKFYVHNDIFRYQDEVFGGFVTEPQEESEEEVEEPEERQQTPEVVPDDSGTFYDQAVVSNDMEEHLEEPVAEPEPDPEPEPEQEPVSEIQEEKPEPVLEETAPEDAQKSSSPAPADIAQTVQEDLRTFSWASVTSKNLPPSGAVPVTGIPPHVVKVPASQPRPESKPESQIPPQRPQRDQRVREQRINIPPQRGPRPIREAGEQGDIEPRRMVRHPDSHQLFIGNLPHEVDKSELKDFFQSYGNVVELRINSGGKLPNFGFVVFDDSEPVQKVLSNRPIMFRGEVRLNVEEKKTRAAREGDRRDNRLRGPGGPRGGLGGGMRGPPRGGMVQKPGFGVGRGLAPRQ
Shared flanks, not repeated: GGGAGUUCUACAGUCCGACGAUC … UGGAAUUCUCGGGUGUCAAGG
Sequence | log2 enrichment
UGGGAGGUGGAUUUUGUUUAUUUUUUUCGCUCAUUUCCAGGGGUGGGAAUUUUUUUUUAAUAUGUGUCAUGAAUAAAGUUGUUUUUGAAA | 0.102
CCUCAAGUCCUGUGCUACACAUCGUAUGUACCGAAUCGGCCGGGCCGGCCGGGAAAGUAUUAUGUUACGCCGUUCGGAUCUGCACUUCCA | 0.433
CUCAAGUCCUGUGCUACACAUCGUAUGUACCGAAUCGGUGGAAAGGUUUUUGGAAAGUAUUAUGUUACGCCGUUCGGAUCUGCACUUCCA | 0.131
AGUCCUGUGCUACACAUCGUAUGUACCGAAUCGGGUUUUUUUGGGUGGGUUUUUGGGAAAGUAUUAUGUUACGCCGUUCGGAUCUGCACU | -0.82
UCCUCAAGUCCUGUGCUACACAUCGUAUGUACCGAAUCGGAGGAGGGAGGGGAAAGUAUUAUGUUACGCCGUUCGGAUCUGCACUUCCAG | -0.102
UUUAGACAGAAACAAGAAGCAACAGAGUCCCUUAAGUGCCAAGAGGAACUUCGAGAGCGCCUUCAUGAGGAGUCCAGGGCCAGAGAACAG | -1.98
AAGUCCUGUGCUACACAUCGUAUGUACCGAAUCGGGGAAAAGGGAAAAGGAAAAGGGAAAGUAUUAUGUUACGCCGUUCGGAUCUGCACU | 0.133
UAAUUGUGAUCUACAUUUUAAAAUAUCAAGAGAUCGUCUCAGUGCUUCUUCCCUUACAAUGGAGAGUUUUGCUUUUCUUUGGGCUGGAGG | -2.32
CCUGUGCUACACAUCGUAUGUACCGAAUCAAACCCCCAAACCCCCCCAAAUUUUUUUAAAAAAGUAUUAUGUUACGCCGUUCGGAUCUGC | 0.574
AAGUCCUGUGCUACACAUCGUAUGUACCGAAUCGGAAAAAAAGGAAAAAGGUUUGGAAAGUAUUAUGUUACGCCGUUCGGAUCUGCACUU | -2.72
AAGUCCUGUGCUACACAUCGUAUGUACCGAAUCGGGCCCGGGCCCGGGGCCCGGGGAAAGUAUUAUGUUACGCCGUUCGGAUCUGCACUU | -1.04

Study 6 — technique: protein-binding microarray; form: double-stranded DNA, one strand shown; sample: in vitro; tested at: not given; direction: higher = stronger binding
Target: Protein max, full length (MAX, Homo sapiens, UniProt P61244-2, residues 1-151)
Setting: k-mer, scored over probes, only values ≥0.25
Sequence | E-score
AGTGTGAC | 0.3
ACATGTGC | 0.487
CAATCACA | 0.273
ATGGCATG | 0.34
CCCACACC | 0.281
ATGTGGCA | 0.272
CCGCCTGA | 0.251
AAAACGTG | 0.451
GCCTACAC | 0.252
CATGTTCA | 0.34
CACCGTGG | 0.347
ACGACCAC | 0.286
ACCCCGCC | 0.279
CACGGGCG | 0.251
AACCCACG | 0.398
TGCCCGCA | 0.281
AACGTGAA | 0.253
CGTGGGGC | 0.355
ACGGCATG | 0.401
CATGTATC | 0.288
GGGGAGGA | 0.261
ACAAGCGT | 0.257
GCACGCCC | 0.335
GCCCACCC | 0.368

Excerpt of the above (study 1):
Substitution | binding fitness
K36W | -1.55 natural log
R30G | -1.39 natural log
R53D | -1.43 natural log
E32C | -1.27 natural log
L38N | -1.46 natural log
A46D | -1.46 natural log
K39G | -1.48 natural log
L38W | -1.54 natural log
A49T | -1.34 natural log
M51P | -1.51 natural log
A40F | -1.56 natural log
Q55G | -1.53 natural log
I28Y | -1.5 natural log
M51L | -1.48 natural log
T48G | -1.52 natural log
L38I | -1.17 natural log
E44I | -1.24 natural log
S47Q | -1.58 natural log
